# Assay results pooled from the literature.
# A part holds a random share of what one study measured. Substitutions count along the parent as printed.

# Series 1
# Target: CCNE2, cyclin fold, Cln2 fusion (human)
# Technique: yeast growth competition, sequencing
# Sample: yeast
# Notes: strong parent motif
# Baseline: not given
# Direction: higher = stronger binding
# Parent: E2F1 docking peptide (human); PPVKRRLDLETDH; partner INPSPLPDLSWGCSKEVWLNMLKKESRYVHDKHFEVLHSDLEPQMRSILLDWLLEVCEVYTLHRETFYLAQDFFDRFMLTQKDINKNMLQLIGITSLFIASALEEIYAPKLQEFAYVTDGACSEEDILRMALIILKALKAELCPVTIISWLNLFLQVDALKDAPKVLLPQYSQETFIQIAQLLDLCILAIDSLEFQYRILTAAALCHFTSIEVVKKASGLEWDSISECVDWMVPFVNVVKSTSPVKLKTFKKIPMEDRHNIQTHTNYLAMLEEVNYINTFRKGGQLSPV
Substitution,normalised enrichment score
P2M,0.295
D8Y,1.88
D12N,1.15
D12A,1.7
R6H,0.47
R6C,-0.0263
E10H,2.53
E10M,1.16
K4E,-0.0844
T11W,2.92
H13S,1.17
R5I,-0.459
R5D,0.631
K4F,-0.131
P2A,1.02
P1W,1.79
D8M,2.06

# Series 2
# Target: ABI1, truncated, D143A, DHFR fusion (Arabidopsis thaliana)
# Technique: DHFR PCA, deep sequencing
# Sample: yeast
# Notes: methotrexate growth selection, single substitutions
# Added: (+)-ABA 4.8 µM
# Baseline: wild-type fitted maximum
# Direction: higher = stronger binding
# Parent: PYL1, truncated, DHFR fusion (Arabidopsis thaliana); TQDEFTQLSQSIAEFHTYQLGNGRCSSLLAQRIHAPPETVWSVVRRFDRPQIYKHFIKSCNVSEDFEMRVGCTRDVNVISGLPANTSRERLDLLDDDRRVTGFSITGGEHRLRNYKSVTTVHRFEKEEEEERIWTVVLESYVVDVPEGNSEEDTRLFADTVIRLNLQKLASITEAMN
Substitution,relative binding score
V143H,-1.84%
T160G,10.2%
L169M,-11%
R69S,66%
S104H,10%
T135Q,-12.8%
Q19F,43%
Y53N,-13.1%
W134N,58%
L138K,-40.6%
Q31K,60.6%
E128L,59.2%
R88D,8.25%
E64R,67.3%
Y53G,-0.901%

# Series 3
# Target: RING finger protein unkempt homolog, zinc fingers 1-6, GST-SBP tag (UNK, Homo sapiens, UniProt Q9C0B0, residues 30-357)
# Technique: RNA Bind-n-Seq
# Molecule type: RNA
# Sample: in vitro
# Concentration: not given
# Notes: RNA with constant flanks, human and mouse sites, ends assumed
# Baseline: input RNA pool
# Direction: higher = stronger binding
# Shared flanks, not repeated: GGGAGUUCUACAGUCCGACGAUC … CAACAGAGGAUUGAGCAUCA
# Residues (chain): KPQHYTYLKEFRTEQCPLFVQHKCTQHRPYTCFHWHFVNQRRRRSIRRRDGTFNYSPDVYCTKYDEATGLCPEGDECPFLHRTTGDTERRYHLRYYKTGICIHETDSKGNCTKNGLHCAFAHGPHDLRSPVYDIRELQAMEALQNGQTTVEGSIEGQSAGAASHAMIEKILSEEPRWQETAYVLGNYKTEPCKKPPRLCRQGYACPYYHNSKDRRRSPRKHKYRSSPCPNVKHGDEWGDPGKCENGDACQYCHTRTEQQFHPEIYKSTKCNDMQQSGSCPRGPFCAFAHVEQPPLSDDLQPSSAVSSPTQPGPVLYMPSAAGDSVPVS
Sequence,bound/input enrichment [ratio]
CAGCGCAGCAGCAGCCAGGAGAAGCCUACUCAGCUAUGCCUCGGGCUCAGCAGUCUGCUUCUUAUCAGCCCAUGCCAGCUGACCCUUUUGCUAUGGUCUCUAGAGCUCAGCAGAUGGUUG,0.0731
CAAUUGCCUAUACUUGGUUCAACCUGCAGGCUCGAAAACGCAAGUACUUUAAAAAGCAUGAGAAACGAAUGUCGAAGGAUGAAGAAAGGGCAGUCAAAGACGAGCUGCUCAGUGAGAAGC,0.2
CUGCAAGACAAGGACAAGGAGGUGGAAGAGCUCCUUCAGGAAAUACAAUGUGAGAAGGCUCAAGCAAAGACAGCCUCUGAGCUUUCUAAAUCCAUGGAGUCCAUGCGUGGGCAUUUGCAG,0.143
GAGAAAAGUGGAAUGGAGAAAAGUGGUUUGGAGUCCACUGUGUGUGUGACUAAUGUCAGGUCUUUCACUUCUGCUUUUCUCUUCUCCAUUGAAGUUCAAGUUACCAUUGGGUUUGGAGGG,0.223
ACAACGUACAUCAAUGCCUCGACGUGUACAGUCAGCUUUCAACCGACCAACCCUCCAAUUAUAUUUGACCUUCCAAACCCACAGGGUUCCUGAAGCUCUAAAUGCCCUAUUGGAAUGUGA,0.187
CUUAAUAGGCUACACUAGUGGUAGGUAGUGUAGACAGAGAUGUAAAUGUGCUGUUCCAAAACUGUGAGCUGCCUCGUGAGGAAUCUGGCACGGCAGUGUGAUGCUUCUAGGGCGGCACAG,0.461
AUUAAUAGAUAUAGCCGUUUAUCAAAAAAAAGAGAAAAUGACAAGGUGAAGUAUGAAGUAACAGAAGAUGUGUACACAUCCAGAAAGAAACAACACCAGACCAUGAUGCAUUAUUUUUGU,1.89
UCAACGCCUAAAGUCAAGAAGAGCGUCAGCAGUAGAAUCCAUGAAGCAGUGAAAGCCAUUGCCCUUUGUCAUAAUGUCACUCCUGUGUAUGAGGCUCGGGCUGGCAUCACUGGGGAGACU,0.0592
GCUGCCCAGAAGGCAAAGCCAGUAGCUACUACUCCUAUUCCUGGUACUCCAUGGUGUGUUGUUUGGACUGGUGAUGAGAGGGUCUUCUUUUACAAUCCCACCACCCGCCUUUCUAUGUGG,0.11
CUACGUUUUUACACAGCCCCACCUGCUCCCCGGCUUGCCCUUUGCUUCGUAGACAUCCGUCGCUUUGGCCACUGGGAUCCUGGGGGUGAAUGGCAACCAGGCCGUGGACCCUGUGUCUUG,0.0759
UCUCCUGAUCUAAUGAGUUUUAUGAUGGAAUUGAAGAUGAUUUUGGAAGUUGCUUUAAAGAAUAAGCAAGAGUUGUGUGUACAACCACCUUCUUGCAGUUUCUGCAAAGACCUUCUUACU,0.148

# Single results of other studies
Substance,target,assay,test system,setting,how to read,endpoint,result
"PhoQ, residues 284 288 289 292 302 303 SIHMAM","PhoP, residues 12 14 15 18 19 NQFFI (Escherichia coli, UniProt P23836)","Sort-seq, item: YFP reporter",E. coli,"PhoQ-PhoP variant library, added: 10 µM Mg2+","baseline: high Mg2+ state, higher = stronger signaling",fold induction,9.44

# Some of these lines once more (series 3):
Sequence,bound/input enrichment [ratio]
CAGCGCAGCAGCAGCCAGGAGAAGCCUACUCAGCUAUGCCUCGGGCUCAGCAGUCUGCUUCUUAUCAGCCCAUGCCAGCUGACCCUUUUGCUAUGGUCUCUAGAGCUCAGCAGAUGGUUG,0.0731
CAAUUGCCUAUACUUGGUUCAACCUGCAGGCUCGAAAACGCAAGUACUUUAAAAAGCAUGAGAAACGAAUGUCGAAGGAUGAAGAAAGGGCAGUCAAAGACGAGCUGCUCAGUGAGAAGC,0.2
CUGCAAGACAAGGACAAGGAGGUGGAAGAGCUCCUUCAGGAAAUACAAUGUGAGAAGGCUCAAGCAAAGACAGCCUCUGAGCUUUCUAAAUCCAUGGAGUCCAUGCGUGGGCAUUUGCAG,0.143
GAGAAAAGUGGAAUGGAGAAAAGUGGUUUGGAGUCCACUGUGUGUGUGACUAAUGUCAGGUCUUUCACUUCUGCUUUUCUCUUCUCCAUUGAAGUUCAAGUUACCAUUGGGUUUGGAGGG,0.223
ACAACGUACAUCAAUGCCUCGACGUGUACAGUCAGCUUUCAACCGACCAACCCUCCAAUUAUAUUUGACCUUCCAAACCCACAGGGUUCCUGAAGCUCUAAAUGCCCUAUUGGAAUGUGA,0.187
CUUAAUAGGCUACACUAGUGGUAGGUAGUGUAGACAGAGAUGUAAAUGUGCUGUUCCAAAACUGUGAGCUGCCUCGUGAGGAAUCUGGCACGGCAGUGUGAUGCUUCUAGGGCGGCACAG,0.461
AUUAAUAGAUAUAGCCGUUUAUCAAAAAAAAGAGAAAAUGACAAGGUGAAGUAUGAAGUAACAGAAGAUGUGUACACAUCCAGAAAGAAACAACACCAGACCAUGAUGCAUUAUUUUUGU,1.89
